Measured values gathered from unrelated publications.
± marks the error that the study gave. ≈ marks a conversion by molar mass, not a printed value.
OPRK1: Kappa-type opioid receptor (OPRK1, Homo sapiens, UniProt P41145)
OPRD1: Delta-type opioid receptor (OPRD1, Homo sapiens, UniProt P41143)
inhA: Enoyl-[acyl-carrier-protein] reductase [NADH] (inhA, Mycobacterium tuberculosis, UniProt P9WGR1)
OPRL1: Nociceptin receptor (OPRL1, Homo sapiens, UniProt P41146)
Oprm1: Mu-type opioid receptor (Oprm1, Rattus norvegicus, UniProt P33535)
Muscarinic acetylcholine receptor: Muscarinic acetylcholine receptor (Xenopus laevis, UniProt A0A8J0U760)
ACHE: Acetylcholinesterase (ACHE, Homo sapiens, UniProt P22303)

Sequences of proteins named here, by UniProt entry; tags and fusion partners are left off. A line that says so, or that is headed by a name, gives the form on record, which may keep a tag or linker. Residues count along the entry.
UniProt P41145, whole entry: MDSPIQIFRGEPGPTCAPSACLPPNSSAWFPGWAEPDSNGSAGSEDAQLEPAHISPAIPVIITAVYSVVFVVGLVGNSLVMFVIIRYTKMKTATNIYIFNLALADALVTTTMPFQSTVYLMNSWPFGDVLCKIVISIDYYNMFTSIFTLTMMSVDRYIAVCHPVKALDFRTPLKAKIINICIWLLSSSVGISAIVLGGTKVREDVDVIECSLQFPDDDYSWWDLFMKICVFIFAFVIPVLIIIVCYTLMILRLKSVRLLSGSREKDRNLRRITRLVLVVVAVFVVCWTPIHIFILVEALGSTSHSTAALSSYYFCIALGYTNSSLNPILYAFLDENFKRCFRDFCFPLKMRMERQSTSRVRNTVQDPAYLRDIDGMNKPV
UniProt P9WGR1, whole entry: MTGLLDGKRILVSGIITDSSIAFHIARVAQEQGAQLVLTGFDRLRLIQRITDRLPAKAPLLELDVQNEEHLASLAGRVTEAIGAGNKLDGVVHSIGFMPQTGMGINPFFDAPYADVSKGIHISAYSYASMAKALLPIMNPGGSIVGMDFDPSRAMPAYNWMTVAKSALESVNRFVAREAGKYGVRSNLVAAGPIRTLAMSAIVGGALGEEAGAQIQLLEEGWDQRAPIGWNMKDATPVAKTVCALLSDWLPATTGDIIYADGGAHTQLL
UniProt P33535, whole entry: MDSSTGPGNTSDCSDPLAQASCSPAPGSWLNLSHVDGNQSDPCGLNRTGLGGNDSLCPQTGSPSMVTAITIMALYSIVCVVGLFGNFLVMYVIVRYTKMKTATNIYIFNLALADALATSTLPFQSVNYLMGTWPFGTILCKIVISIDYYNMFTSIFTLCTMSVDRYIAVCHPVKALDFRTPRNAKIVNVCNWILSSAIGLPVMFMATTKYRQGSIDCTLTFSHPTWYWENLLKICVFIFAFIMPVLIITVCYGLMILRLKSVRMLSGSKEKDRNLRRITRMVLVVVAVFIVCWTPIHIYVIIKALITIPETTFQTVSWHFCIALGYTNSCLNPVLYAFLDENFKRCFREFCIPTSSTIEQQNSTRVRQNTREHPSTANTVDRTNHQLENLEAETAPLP
UniProt P35462, whole entry: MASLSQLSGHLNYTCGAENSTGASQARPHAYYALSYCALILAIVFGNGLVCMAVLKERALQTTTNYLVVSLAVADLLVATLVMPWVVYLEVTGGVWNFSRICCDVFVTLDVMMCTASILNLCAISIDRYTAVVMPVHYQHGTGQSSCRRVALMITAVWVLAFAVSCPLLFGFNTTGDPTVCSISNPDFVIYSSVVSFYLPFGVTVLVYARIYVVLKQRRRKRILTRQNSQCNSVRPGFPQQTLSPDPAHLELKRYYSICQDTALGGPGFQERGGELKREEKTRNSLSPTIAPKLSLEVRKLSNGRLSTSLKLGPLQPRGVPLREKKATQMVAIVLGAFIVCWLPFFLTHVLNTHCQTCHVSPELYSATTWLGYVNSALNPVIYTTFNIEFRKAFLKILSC
UniProt P37231, 176-477 with tags or gaps isoform 2 limits assumed: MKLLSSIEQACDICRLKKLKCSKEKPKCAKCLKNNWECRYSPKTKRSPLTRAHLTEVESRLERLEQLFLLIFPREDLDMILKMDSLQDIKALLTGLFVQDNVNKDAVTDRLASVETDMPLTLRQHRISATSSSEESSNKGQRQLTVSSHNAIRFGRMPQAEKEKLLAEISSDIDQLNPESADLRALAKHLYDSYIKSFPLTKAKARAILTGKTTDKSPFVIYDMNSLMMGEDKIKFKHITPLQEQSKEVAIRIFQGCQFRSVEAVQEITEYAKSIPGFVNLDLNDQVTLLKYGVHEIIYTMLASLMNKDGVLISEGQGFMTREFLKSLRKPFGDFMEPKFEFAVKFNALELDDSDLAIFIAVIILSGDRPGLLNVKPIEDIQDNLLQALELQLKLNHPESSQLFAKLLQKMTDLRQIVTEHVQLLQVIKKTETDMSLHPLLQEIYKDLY
UniProt P36544, 23-502 limits assumed: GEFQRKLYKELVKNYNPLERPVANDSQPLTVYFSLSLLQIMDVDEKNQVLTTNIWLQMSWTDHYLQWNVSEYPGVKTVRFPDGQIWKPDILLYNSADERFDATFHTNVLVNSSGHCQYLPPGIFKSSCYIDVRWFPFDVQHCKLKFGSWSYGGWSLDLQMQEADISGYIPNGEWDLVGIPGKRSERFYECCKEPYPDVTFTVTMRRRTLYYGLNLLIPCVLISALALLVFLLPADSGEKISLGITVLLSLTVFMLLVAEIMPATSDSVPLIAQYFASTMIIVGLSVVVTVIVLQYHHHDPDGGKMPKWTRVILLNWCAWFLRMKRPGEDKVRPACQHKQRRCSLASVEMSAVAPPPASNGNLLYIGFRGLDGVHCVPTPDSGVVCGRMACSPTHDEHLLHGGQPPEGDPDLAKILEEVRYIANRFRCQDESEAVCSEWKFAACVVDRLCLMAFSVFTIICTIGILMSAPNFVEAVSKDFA
UniProt P17405, 47-631 limits assumed: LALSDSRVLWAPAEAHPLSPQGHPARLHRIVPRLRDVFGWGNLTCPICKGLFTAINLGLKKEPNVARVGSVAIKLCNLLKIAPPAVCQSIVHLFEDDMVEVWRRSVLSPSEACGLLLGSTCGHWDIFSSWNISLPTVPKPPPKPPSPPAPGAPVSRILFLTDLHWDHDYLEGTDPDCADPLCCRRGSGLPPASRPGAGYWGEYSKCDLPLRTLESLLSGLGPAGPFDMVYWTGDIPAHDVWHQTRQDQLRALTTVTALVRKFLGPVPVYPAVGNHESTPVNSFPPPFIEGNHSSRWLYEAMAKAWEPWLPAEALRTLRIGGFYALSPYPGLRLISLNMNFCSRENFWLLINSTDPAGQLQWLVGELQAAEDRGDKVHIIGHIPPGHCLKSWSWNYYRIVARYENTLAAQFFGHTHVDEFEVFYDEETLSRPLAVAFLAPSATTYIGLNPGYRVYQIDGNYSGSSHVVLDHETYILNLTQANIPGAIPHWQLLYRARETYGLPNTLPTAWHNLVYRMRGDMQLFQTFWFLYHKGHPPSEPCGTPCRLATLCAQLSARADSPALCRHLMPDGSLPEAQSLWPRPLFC
UniProt P09483, 31-630 limits assumed: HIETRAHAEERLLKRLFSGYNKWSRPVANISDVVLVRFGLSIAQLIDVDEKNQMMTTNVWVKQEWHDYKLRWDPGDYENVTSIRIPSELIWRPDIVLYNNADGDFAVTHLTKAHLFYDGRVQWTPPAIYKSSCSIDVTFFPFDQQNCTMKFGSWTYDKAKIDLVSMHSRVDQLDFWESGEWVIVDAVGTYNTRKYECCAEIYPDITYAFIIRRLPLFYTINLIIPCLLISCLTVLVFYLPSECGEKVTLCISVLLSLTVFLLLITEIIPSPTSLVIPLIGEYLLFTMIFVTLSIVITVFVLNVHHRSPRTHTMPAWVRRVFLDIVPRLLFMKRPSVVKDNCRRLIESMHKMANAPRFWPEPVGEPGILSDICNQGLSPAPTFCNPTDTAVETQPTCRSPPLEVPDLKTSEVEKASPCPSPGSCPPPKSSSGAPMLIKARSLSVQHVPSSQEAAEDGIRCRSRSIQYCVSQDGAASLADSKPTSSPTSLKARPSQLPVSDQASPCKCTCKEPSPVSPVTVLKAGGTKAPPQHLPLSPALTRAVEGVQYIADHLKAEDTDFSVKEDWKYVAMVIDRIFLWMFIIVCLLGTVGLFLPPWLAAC
UniProt P35372, whole entry: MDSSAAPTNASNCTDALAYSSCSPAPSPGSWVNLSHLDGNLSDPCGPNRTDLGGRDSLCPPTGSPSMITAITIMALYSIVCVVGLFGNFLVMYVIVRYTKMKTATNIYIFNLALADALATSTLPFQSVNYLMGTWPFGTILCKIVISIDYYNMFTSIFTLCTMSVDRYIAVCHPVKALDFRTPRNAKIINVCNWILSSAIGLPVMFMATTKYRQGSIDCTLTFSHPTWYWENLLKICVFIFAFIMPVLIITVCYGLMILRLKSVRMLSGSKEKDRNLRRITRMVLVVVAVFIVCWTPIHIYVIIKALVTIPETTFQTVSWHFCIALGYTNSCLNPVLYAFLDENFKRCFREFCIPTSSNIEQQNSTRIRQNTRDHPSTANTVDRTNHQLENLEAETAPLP
UniProt Q9UQM7, whole entry: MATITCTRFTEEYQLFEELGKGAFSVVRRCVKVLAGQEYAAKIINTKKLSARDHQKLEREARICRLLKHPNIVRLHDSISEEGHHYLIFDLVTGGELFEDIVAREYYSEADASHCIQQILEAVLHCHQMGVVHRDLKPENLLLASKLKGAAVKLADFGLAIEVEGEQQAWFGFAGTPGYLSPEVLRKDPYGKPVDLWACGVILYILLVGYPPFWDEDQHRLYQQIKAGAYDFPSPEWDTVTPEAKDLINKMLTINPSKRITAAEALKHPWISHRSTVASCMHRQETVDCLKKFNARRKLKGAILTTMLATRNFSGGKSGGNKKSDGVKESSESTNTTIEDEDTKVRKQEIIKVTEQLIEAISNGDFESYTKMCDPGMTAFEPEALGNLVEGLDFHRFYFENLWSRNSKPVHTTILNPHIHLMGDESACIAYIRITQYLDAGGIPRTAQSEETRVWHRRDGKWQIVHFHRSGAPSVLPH
UniProt O23492, whole entry: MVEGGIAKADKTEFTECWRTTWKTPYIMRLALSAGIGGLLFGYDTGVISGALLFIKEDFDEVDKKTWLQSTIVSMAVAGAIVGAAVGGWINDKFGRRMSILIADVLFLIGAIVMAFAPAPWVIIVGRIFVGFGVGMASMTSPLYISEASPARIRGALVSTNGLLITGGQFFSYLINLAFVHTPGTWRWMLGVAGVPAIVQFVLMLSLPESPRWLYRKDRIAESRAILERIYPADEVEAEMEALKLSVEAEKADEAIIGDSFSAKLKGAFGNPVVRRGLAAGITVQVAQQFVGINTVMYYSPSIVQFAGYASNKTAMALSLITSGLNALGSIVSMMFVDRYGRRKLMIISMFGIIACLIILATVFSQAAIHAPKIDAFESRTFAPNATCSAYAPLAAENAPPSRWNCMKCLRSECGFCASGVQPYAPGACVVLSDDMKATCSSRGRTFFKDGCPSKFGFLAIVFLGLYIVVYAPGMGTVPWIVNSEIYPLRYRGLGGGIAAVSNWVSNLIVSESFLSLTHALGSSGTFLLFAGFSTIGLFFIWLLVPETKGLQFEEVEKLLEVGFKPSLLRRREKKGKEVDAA
UniProt Q62645, 28-1323 limits assumed: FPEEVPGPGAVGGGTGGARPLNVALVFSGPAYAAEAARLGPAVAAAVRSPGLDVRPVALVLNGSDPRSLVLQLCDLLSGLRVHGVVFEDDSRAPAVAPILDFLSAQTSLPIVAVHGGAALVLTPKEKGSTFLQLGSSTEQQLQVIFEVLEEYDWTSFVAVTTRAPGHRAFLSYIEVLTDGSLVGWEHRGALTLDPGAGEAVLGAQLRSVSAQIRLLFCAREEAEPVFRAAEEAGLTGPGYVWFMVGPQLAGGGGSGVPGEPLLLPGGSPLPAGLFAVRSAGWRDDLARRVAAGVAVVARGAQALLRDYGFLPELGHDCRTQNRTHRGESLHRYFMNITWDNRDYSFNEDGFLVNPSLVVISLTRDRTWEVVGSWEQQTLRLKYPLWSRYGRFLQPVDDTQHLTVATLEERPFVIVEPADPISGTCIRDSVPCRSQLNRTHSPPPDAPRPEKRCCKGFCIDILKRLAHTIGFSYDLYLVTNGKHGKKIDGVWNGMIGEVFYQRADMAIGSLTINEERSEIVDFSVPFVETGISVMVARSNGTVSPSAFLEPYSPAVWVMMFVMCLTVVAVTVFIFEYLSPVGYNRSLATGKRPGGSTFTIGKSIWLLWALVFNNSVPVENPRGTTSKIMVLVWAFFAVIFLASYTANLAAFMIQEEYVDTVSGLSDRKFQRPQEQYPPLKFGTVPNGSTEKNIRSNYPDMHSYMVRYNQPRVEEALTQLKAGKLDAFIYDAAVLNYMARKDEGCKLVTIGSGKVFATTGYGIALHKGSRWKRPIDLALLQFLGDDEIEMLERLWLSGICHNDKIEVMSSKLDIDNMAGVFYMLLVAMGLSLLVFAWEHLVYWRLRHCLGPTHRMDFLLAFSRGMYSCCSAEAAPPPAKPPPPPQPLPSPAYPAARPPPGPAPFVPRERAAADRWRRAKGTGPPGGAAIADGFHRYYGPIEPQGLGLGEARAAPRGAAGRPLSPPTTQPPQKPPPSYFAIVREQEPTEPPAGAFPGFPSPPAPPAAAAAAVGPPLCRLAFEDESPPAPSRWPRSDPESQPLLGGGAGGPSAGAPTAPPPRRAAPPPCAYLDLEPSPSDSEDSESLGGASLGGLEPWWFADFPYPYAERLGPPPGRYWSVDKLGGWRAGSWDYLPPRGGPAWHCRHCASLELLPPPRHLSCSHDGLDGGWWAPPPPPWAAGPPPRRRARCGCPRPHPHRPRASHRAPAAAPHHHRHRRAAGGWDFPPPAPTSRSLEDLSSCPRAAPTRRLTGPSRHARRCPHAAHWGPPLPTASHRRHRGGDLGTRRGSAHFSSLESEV

CN(C(=O)Cc1ccc(Cl)c(Cl)c1)C1CCC2(CCCO2)CC1N1CCCC1 (centres unmarked)
Emax (OPRK1; receptor internalization, agonist, on-cell western; human receptor; relative to: control): 54.8 ± 7.9%

pralidoxime iodide
reactivation rate ratio (Cholinesterase, DFP-inhibited (BCHE, Homo sapiens, UniProt P06276); reactivator; relative to: kr over kr acetylcholinesterase (human)): 10 fold

Cc1ccc2[nH]c(CNCCC[C@H]3CCOC3)cc(=O)c2c1
binding (DRD3 (Homo sapiens, UniProt P35462); 10 µM): inactive

CSc1nc(Cl)cc(Sc2nnc(-c3cc(C(F)(F)F)cc(C(F)(F)F)c3)[nH]2)n1
MIC (Escherichia coli; NR698; no additive): 1.8 µg/mL (≈ 3.81 µM)

CCOc1ccc2c(c1)Oc1cc(OCC)ccc1C21OC(=O)c2ccccc21
Vmax (Cytochrome P450 6P2 (Anopheles gambiae, UniProt Q8T629, V81I); substrate; dual plasmid expression): 301 ± 12 RFU/s

CC(C)C[C@@H]1NC(=O)[C@H](CCC(=O)O)NC(=O)[C@@H]2CCCN2C(=O)[C@H](Cc2c[nH]cn2)NC(=O)[C@H](CCC(=O)O)NC(=O)[C@H](CC(C)C)NC(=O)[C@H](Cc2c[nH]cn2)NC(=O)[C@@H]2CSSC[C@H](NC(=O)CN)C(=O)N[C@@H](CSSC[C@@H](C(N)=O)NC1=O)C(=O)N[C@@H](CO)C(=O)N[C@@H](Cc1c[nH]cn1)C(=O)N1CCC[C@H]1C(=O)N[C@@H](C)C(=O)N2
selectivity ratio (Neuronal acetylcholine receptor; alpha3/beta2 (Rattus norvegicus, UniProt P04757+P12390); relative to: IC50 α6/α3β2β3 over α3β2): 14

CCCCOP(=O)(OCCCC)OCCCC
EC20 (PPARG (Homo sapiens, UniProt P37231); reporter gene, agonist; HEK293; relative to: rosiglitazone maximum): 13.3 µM

CO[C@]12CC[C@@]3(C[C@@H]1[C@@](C)(O)C(C)(C)C)[C@H]1Cc4c(Cl)cc(O)c5c4[C@@]3(CCN1CC1CC1)[C@H]2O5
antagonist activity (OPRD1; antagonist; CHO; concentration not given): inhibited

O=C(Nc1ccccc1)c1cc([N+](=O)[O-])ccc1Cl
revertants (Salmonella typhimurium; Ames plate incorporation; TA100; 1500 µg/plate, without metabolic activation): 2190 ± 30 revertants/plate

COc1ccc(CCCCC(=O)C(F)(F)C(F)(F)F)cc1
selectivity ratio (PLA2G6 (Homo sapiens, UniProt O60733); enzyme activity, inhibitor, HPLC-MS/MS lipidomics; relative to: IC50 GV sPLA2 over IC50 PLA2G6): 262

CO[C@]12CC[C@@]3(C[C@@H]1[C@](C)(O)c1cccc(C)c1)[C@H]1Cc4ccc(O)c5c4[C@@]3(CCN1CC1CC1)[C@H]2O5
stimulation (OPRK1; G-protein activation, agonist; 10 µM; relative to: U-69593): 102 ± 1%

ethoxymethyl salvinorin B
Emax (OPRK1; receptor internalization, agonist, on-cell western; human receptor; relative to: control): 46.7 ± 4.5%

CC(C)[C@H]1CC[C@@H](N2CCC(n3c(CO)cc4ccccc43)CC2)CC1
inhibition (TACR2 (Homo sapiens, UniProt P21452); radioligand binding; 10 µM): 92%

methoxymethyl salvinorin B
log intrinsic relative activity (OPRK1; G protein activation, agonist; concentration not given; relative to: dynorphin A): 0.45 ± 0.1

CCN1CCN(Cc2ccc(NC(=O)c3ccc(C)c(/C=C/c4cnc5[nH]ccc5c4OC)c3)cc2C(F)(F)F)CC1
log2 fold change (TPR-MET fusion; kinase-CDC37 interaction, cell-based kinome screen; 5 µM; relative to: vehicle): -0.143

CC1(C)CCC(Cc2cc(O)c(-c3ccccc3)c(=O)[nH]2)CC1
ΔTm (inhA; thermal shift): 1.3 °C

nociceptin
time to phosphorylation (OPRL1; receptor phosphorylation, agonist, Western blot, item: Ser346 phosphorylation; HEK293; 10 µM): ≤ 20 s

Cc1ncc(-c2cc(Cl)ccc2F)cc1-n1c(=O)n(CC(N)=O)c2ccccc21
inhibition (OPRD1; binding, radioligand binding; 10 µM): 17.5%

CO[C@]12CC[C@@]3(C[C@@H]1[C@](C)(O)c1cccs1)[C@H]1Cc4ccc(O)c5c4[C@@]3(CCN1CC1CC1)[C@H]2O5
stimulation (Oprm1; G protein activation, agonist; 10 µM; relative to: DAMGO): 0 ± 1%

C[N+](C)(C)CCCCCCCCCC[N+](C)(C)C
selectivity ratio (Butyrylcholinesterase (Sus scrofa, UniProt A0A4X1VEU5); relative to: Ki over Ki butyrylcholinesterase (human)): 100 fold

C[C@@H]1NC(=O)[C@H](CCCNC(=N)N)NC(=O)[C@H](CCCNC(=N)N)NC(=O)[C@H](Cc2c[nH]cn2)NC(=O)[C@H](CO)NC(=O)[C@@H]2CSSC[C@H](NC(=O)CN)C(=O)N[C@@H](CSSC[C@@H](C(N)=O)NC(=O)[C@H](CO)NC(=O)[C@H](CCCNC(=N)N)NC1=O)C(=O)N[C@@H](CO)C(=O)N[C@@H](Cc1c[nH]cn1)C(=O)N1CCC[C@H]1C(=O)N[C@@H](C)C(=O)N2
remaining response (CHRNA7 (Homo sapiens, UniProt P36544); ion current, antagonist; Xenopus oocytes; 10 µM, 5 min, with: acetylcholine; relative to: control): 46 ± 15%

U-69593
Δlog(τ/KA) (OPRK1; ERK1/2 phosphorylation, agonist, operational model; CHO expressing human KOR; unit not given; relative to: reference agonist): 0

CCCC(=O)SCC[N+](C)(C)C
kcat (Cholinesterase (BCHE, Homo sapiens, UniProt P06276); substrate): 30000 min⁻¹

CN(C(=O)Cc1ccc(Cl)c(Cl)c1)[C@H](CN1CCCC1)c1ccccc1
log bias factor (OPRK1; agonist; relative to: G protein over internalization, vs dynorphin A, positive means G protein bias): 0.75

nociceptin
maximal stimulation (OPRL1; agonist; cell membranes; relative to: standard agonist): 100%

CC(=O)OCC[N+](C)(C)C
Hill coefficient (Muscarinic acetylcholine receptor; binding, [3H]QNB competition; Xenopus laevis heart homogenate): 0.49

CCC(=O)SCC[N+](C)(C)C
substrate inhibition constant (Kss) (ACHE; substrate): 4.7 ± 1.6 mM

CCCCCCCCCCC1=C(C)C(=O)C(OC)=C(OC)C1=O
Km (Dihydroorotate dehydrogenase (quinone) (Pyricularia oryzae, UniProt G4NFI3, M402V); substrate): 495 ± 52.2 µM

O=C(O)c1ccccc1[As](=O)(O)O
maximal inhibition (SMPD1 (Homo sapiens, UniProt P17405); enzyme activity; pH 5.0, with: sphingomyelin substrate): 94.3%

O=c1[nH]c(CC2CCCCC2)cc(O)c1-c1ccccc1
binding stoichiometry (inhA; isothermal titration calorimetry; concentration not given, with: NADH): 1.04 ± 0.02

CO[C@]12CC[C@@]3(C[C@@H]1[C@](C)(O)c1ccc(Cl)s1)[C@H]1Cc4ccc(O)c5c4[C@@]3(CCN1CC1CC1)[C@H]2O5
stimulation (OPRK1; G-protein activation, agonist; 10 µM; relative to: U-69593): 79 ± 6%

CC(C)C[C@@H]1NC(=O)[C@H](CCC(=O)O)NC(=O)[C@@H]2CCCN2C(=O)[C@H](Cc2c[nH]cn2)NC(=O)[C@H](CCCCC(=O)O)NC(=O)[C@H](CC(C)C)NC(=O)[C@H](Cc2c[nH]cn2)NC(=O)[C@@H]2CSSC[C@H](NC(=O)CN)C(=O)N[C@@H](CSSC[C@@H](C(N)=O)NC1=O)C(=O)N[C@@H](CO)C(=O)N[C@@H](Cc1c[nH]cn1)C(=O)N1CCC[C@H]1C(=O)N[C@@H](C)C(=O)N2
selectivity ratio (Neuronal acetylcholine receptor; alpha4/beta2 (Rattus norvegicus, UniProt P09483+P12390); relative to: IC50 α4β2 over α3β2): 742

CO[C@]12CC[C@@]3(C[C@@H]1[C@](C)(O)c1cc(C)cc(C)c1)[C@H]1Cc4ccc(O)c5c4[C@@]3(CCN1CC1CC1)[C@H]2O5
stimulation (Oprm1; G protein activation, agonist; 10 µM; relative to: DAMGO): 24 ± 7%

C=CCN1CC[C@@]23c4c5ccc(O)c4C[C@@H]2[C@H](O)C=C[C@@H]3[C@@H]1C5
antagonist activity (OPRM1 (Homo sapiens, UniProt P35372); DAMGO response, GI-1; concentration not given, with: DAMGO; relative to: naloxone): ~35%

CC#C/C(=N\OC[C@H]1COCCN1)c1ccc2ncnc(Nc3ccc(OCc4cccc(F)c4)c(Cl)c3)c2c1
inhibition (CAMK2A (Homo sapiens, UniProt Q9UQM7); kinase activity; 10 µM): 43.7%

Cc1c(-c2ccc(-c3ccc(OC(F)(F)F)cc3)nc2)[nH]c2ccccc2c1=O
Km (cydA, with CydB subunit (Mycobacterium tuberculosis, UniProt L7N662); substrate): 7.7 ± 0.7 µM

O[As](O)O
Km (Inositol transporter 4 (INT4, Arabidopsis thaliana, UniProt O23492); arsenic uptake, substrate, ICP-MS; yeast expressing transporter; 30 min, 30 °C, with: 2 µg/mL myo-inositol): 174 µM

COc1ccc(OC[C@H]2c3cccn3CC(=O)N2Cc2cccc(F)c2)cc1
weighted deactivation tau (Glutamate receptor ionotropic, NMDA 2C, with GluN1 (Rattus norvegicus, UniProt Q00961); ion current, whole-cell patch clamp; HEK293T cells, transfected; 10 µM, with: 1 mM glutamate for 10 ms plus 100 µM glycine): 1120 ± 227 ms

CO[C@]12CC[C@@]3(C[C@@H]1[C@](C)(O)c1ccc(C(C)C)cc1)[C@H]1Cc4ccc(O)c5c4[C@@]3(CCN1CC1CC1)[C@H]2O5
stimulation (Oprm1; G protein activation, agonist; 10 µM; relative to: DAMGO): 13 ± 3%

CCCN1CCN(c2ccc3c(c2)C2CC3CCN2C(=O)OCc2ccccc2)CC1 (centres unmarked)
Ki (HRH3 (Homo sapiens, UniProt Q9Y5N1); binding, radioligand binding): 644 nM

CO[C@]12CC[C@@]3(C[C@@H]1[C@](C)(O)c1ccc(F)cc1)[C@H]1Cc4ccc(O)c5c4[C@@]3(CCN1CC1CC1)[C@H]2O5
stimulation (Oprm1; G protein activation, agonist; 10 µM; relative to: DAMGO): 18 ± 4%

COc1ccc(C(=O)NC(Sc2ccc(Cl)cc2)C(Cl)(Cl)Cl)cc1 (centres unmarked)
MO-induced calcium influx (TRPA1 (Homo sapiens, UniProt O75762); antagonist, FLIPR calcium; concentration not given, with: 30 µM mustard oil): inhibited

CCN(Cc1ccncc1)C(=O)C(CO)c1ccccc1 (centres unmarked)
Hill coefficient (Muscarinic acetylcholine receptor; binding, [3H]QNB competition; Xenopus laevis heart homogenate): 0.83

CCN(CC)C(=O)Oc1ccc(C(=O)Nc2cccc3cc[nH]c23)cc1
dissociation rate constant (Glutamate receptor ionotropic, NMDA 2D, with GluN1 (Rattus norvegicus, UniProt Q62645)): 0.2 ± 0.01 s⁻¹

CN(C(=O)Cc1cccc2occc12)[C@H]1CC[C@@]2(CCCO2)C[C@@H]1N1CCCC1
log intrinsic relative activity (OPRK1; G protein activation, agonist; concentration not given; relative to: dynorphin A): 0.044 ± 0.1

C[C@H](Cc1ccc(O)c(O)c1)[C@@H](C)Cc1ccc(O)c(O)c1
total amount permeated (human skin; 3% solution, 8 h, skin UV-treated 30 min): 20.4 ± 1.84 µg

CC(C)N(Cc1cc(O)ccc1N)C(C)C
inhibition (ACHE; enzyme activity, inhibitor; 1000 µM): 94%

Repeated from above:
CO[C@]12CC[C@@]3(C[C@@H]1[C@](C)(O)c1cccc(C)c1)[C@H]1Cc4ccc(O)c5c4[C@@]3(CCN1CC1CC1)[C@H]2O5
stimulation (OPRK1; G-protein activation, agonist; 10 µM; relative to: U-69593): 102 ± 1%

ethoxymethyl salvinorin B
Emax (OPRK1; receptor internalization, agonist, on-cell western; human receptor; relative to: control): 46.7 ± 4.5%

CC(C)[C@H]1CC[C@@H](N2CCC(n3c(CO)cc4ccccc43)CC2)CC1
inhibition (TACR2 (Homo sapiens, UniProt P21452); radioligand binding; 10 µM): 92%

methoxymethyl salvinorin B
log intrinsic relative activity (OPRK1; G protein activation, agonist; concentration not given; relative to: dynorphin A): 0.45 ± 0.1

CCN1CCN(Cc2ccc(NC(=O)c3ccc(C)c(/C=C/c4cnc5[nH]ccc5c4OC)c3)cc2C(F)(F)F)CC1
log2 fold change (TPR-MET fusion; kinase-CDC37 interaction, cell-based kinome screen; 5 µM; relative to: vehicle): -0.143

CC1(C)CCC(Cc2cc(O)c(-c3ccccc3)c(=O)[nH]2)CC1
ΔTm (inhA; thermal shift): 1.3 °C

nociceptin
time to phosphorylation (OPRL1; receptor phosphorylation, agonist, Western blot, item: Ser346 phosphorylation; HEK293; 10 µM): ≤ 20 s
